Measurements collected from several papers.
Parts stem from different laboratories: compare values within a part only.

Series 1
Target: Replicase polyprotein 1ab, main protease (rep, Severe acute respiratory syndrome coronavirus 2, UniProt P0DTD1)
Effect on: enzyme activity
Mode: inhibitor
Concentration: 20 µM
Notes: hit confirmation
Endpoint: inhibition
Oc1c(CN2CCCC2)cc(COCc2ccccc2)c2cccnc12: -4.2%
C=C1c2cccc(O)c2C(=O)C2C(=O)[C@]3(O)C(=O)C(C(N)=O)C(=O)[C@@H](N(C)C)[C@@H]3[C@@H](O)[C@H]12 (some centres unmarked): 91%
Oc1cc2c(cc1O)CN(C(=S)NCCc1ccc(Cl)cc1)CCC2: 52.5%
Cc1ccc(C)c(-n2sc3cc(F)ccc3c2=O)c1: 110%

Series 2
Target: Replicase polyprotein 1ab, polymerase (rep, Severe acute respiratory syndrome coronavirus 2, UniProt P0DTD1)
Effect on: enzyme activity
Mode: inhibitor
Concentration: 20 µM
Endpoint: inhibition
c1ccc(Cn2c(-c3ccc(OC[C@H](C4CCNCC4)n4c(-c5ccccc5)nc5ccccc54)cc3)nc3ccccc32)cc1: 25.8%
Cn1nc(-c2ccc(C(F)(F)F)cc2)nc2c(=O)n(C)c(=O)nc1-2: 37%
CN1CCN(C2=Cc3ccccc3Oc3ccc(Cl)cc32)CC1: -5.65%
CC[C@@]1([C@H]2O[C@H]([C@H]3O[C@@](O)(CO)[C@H](C)C[C@@H]3C)C[C@H]2C)CC[C@H]([C@@]2(C)CC[C@]3(C[C@H](O)[C@@H](C)[C@@H]([C@H](C)[C@H](OC)[C@@H](C)C(=O)O)O3)O2)O1: -2.88%
O=C(C[C@H]1NCCC[C@@H]1O)Cn1cnc2cc(Br)c(Cl)cc2c1=O (racemic): -8.79%
Cc1c(O)cccc1C(=O)N[C@@H](CSc1ccccc1)[C@H](O)CN1C[C@H]2CCCC[C@H]2C[C@H]1C(=O)NC(C)(C)C: 5.07%
C=CC(=O)Nc1cc(Nc2nccc(-c3c[nH]c4ccccc34)n2)c(OC)cc1N(C)CCN(C)C: -1.81%
CN(C)C(=O)CCSC(SCCC(=O)O)c1cccc(/C=C/c2ccc3ccc(Cl)cc3n2)c1 (centres unmarked): -0.09%
CC(=O)O[C@H]1C[C@@H]2CC[C@@H]3[C@H](CC[C@@]4(C)[C@H]3C[C@H]([N+]3(C)CCCCC3)[C@@H]4OC(C)=O)[C@@]2(C)C[C@@H]1[N+]1(C)CCCCC1: -6.77%
CC[C@@H](C(=O)[C@@H](C)[C@@H](O)[C@H](C)[C@@H]1O[C@@H]([C@@H](CC)C(=O)O)CC[C@@H]1C)[C@H]1O[C@]2(C=C[C@@H](O)[C@]3(CC[C@@](C)([C@H]4CC[C@](O)(CC)[C@H](C)O4)O3)O2)[C@H](C)C[C@@H]1C: -6.97%
O=C(O)c1ccc(-c2c[nH]c3ncc(-c4ccccc4)cc23)cc1C1CCCC1: -9.46%
CCCCC1OC(=O)c2ccccc21 (centres unmarked): -12.6%
N[C@H]1C[C@@H]1c1ccc(-c2cccc(O)c2)cc1: 1.8%
COC(=O)c1sccc1S(=O)(=O)Nc1ccc(Nc2ccccc2)cc1OC: -17%
Cc1cc(C)c(NC(=O)N(Cc2ccc3c(c2)Cc2ccccc2-3)C2CCCCCC2)c(C)c1: 1.56%
Cc1nc(C#Cc2ccnc(Cl)c2)c(C)n1-c1ccc(OC(F)(F)F)cc1: 0.79%
O=C(O)c1ccc2[nH]cc(CCCCN3CC=C(c4ccccc4)CC3)c2c1: -2.27%
C=C[C@H]1CN2CC[C@H]1C[C@@H]2[C@@H](O)c1ccnc2ccccc12: -3.31%
NC(=O)C1CCCc2c1[nH]c1ccc(Cl)cc21 (centres unmarked): -3.21%
CCC(CC)(NC(=O)C(C)C)C(=O)N[C@@H](CCCN=C(N)N)C(=O)NC1(C(=O)NC(c2ccc(F)cc2)c2ccc(F)cc2)CCCC1: 2.46%
O=C(O)CNC(=O)C(CS)Cc1ccccc1 (centres unmarked): 0.01%
N[C@H]1CC[C@H](N[C@@H]2C[C@H]2c2ccccc2)CC1: -2.26%
O=S1(=O)OC(c2ccc(O)cc2)(c2ccc(O)cc2)c2ccccc21: 15.6%
COc1cccc2c1C(=O)c1c(O)c3c(c(O)c1C2=O)C[C@@](O)(C(=O)CO)C[C@@H]3O[C@H]1C[C@H](N)[C@H](O)[C@H](C)O1: 128%
O=C(N[C@@H]1CC[C@@H](c2cccc(F)c2F)CN(CC(F)(F)F)C1=O)N1CCC(n2c(=O)[nH]c3ncccc32)CC1: -1.58%

Series 3
Target: Histone acetyltransferase KAT6A, winged helix 2, GST fusion (KAT6A, Homo sapiens, UniProt Q92794, residues 85-181)
Technique: protein binding microarray
Form: double-stranded DNA, one strand shown
Matrix: in vitro
Concentration: not given
Notes: 8-mer, flanks averaged, mean of 2 arrays, mostly near background
Baseline: not given
Reading: higher = stronger binding
Endpoint: E-score
Target sequence (chain): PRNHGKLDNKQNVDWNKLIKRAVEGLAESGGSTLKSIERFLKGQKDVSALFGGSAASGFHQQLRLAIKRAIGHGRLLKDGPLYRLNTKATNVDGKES
GGAGGGCA: 0.0892
CTTTAGGC: -0.0334
ACCCTTGA: -0.157
AACACTCA: 0.163
CAGTACCG: -0.136
CACCAGTG: 0.0465
TAGTCACA: -0.143
CAGCTGGC: 0.0851

Series 4
Target: Interferon regulatory factor 7, full length, phosphomimetic (IRF7, Homo sapiens, UniProt Q92985, residues 1-503, S101K/S471D/S472D/S475D/S476D/S477D/S483D/S484D/S487D)
Chain of UniProt Q92985 (whole entry, unmodified, looked up): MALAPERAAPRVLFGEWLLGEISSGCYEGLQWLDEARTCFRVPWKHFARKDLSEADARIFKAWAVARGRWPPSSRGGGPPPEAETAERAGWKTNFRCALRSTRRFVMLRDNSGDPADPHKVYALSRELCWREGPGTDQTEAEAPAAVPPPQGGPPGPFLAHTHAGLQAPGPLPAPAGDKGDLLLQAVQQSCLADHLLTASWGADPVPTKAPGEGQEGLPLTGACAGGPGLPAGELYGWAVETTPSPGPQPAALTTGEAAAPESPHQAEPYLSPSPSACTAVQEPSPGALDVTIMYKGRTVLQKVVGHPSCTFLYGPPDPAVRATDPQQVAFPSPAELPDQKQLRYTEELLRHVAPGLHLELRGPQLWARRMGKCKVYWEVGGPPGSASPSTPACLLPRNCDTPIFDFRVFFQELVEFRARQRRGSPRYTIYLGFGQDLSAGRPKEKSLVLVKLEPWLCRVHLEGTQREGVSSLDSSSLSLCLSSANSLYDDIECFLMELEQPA
Technique: protein-binding microarray
Form: double-stranded DNA, one strand shown
Matrix: in vitro
Concentration: 250 nM
Notes: 60-bp whole probe
With: salmon DNA 0.4 mg/ml
Baseline: random background probes
Reading: higher = stronger binding
Endpoint: log fluorescence
Constant ends, left off below: GCCTAGCAC … GTCTTGATTCGCTTGACGCTGCTG
TTCTCTAACCTCTCTAATAAAGTGCTA: 0.531 z-score
CCCTAGTTGTGTCTTGCCATGTGCTAG: 0.452 z-score
TCATCTCTTGTTCTCTCACTGTGCTAG: 0.87 z-score
TTAGGTTTCGAATTTCGGTTAGTGCTA: 9.61 z-score
TCCTCTTTTTTGTTCCACGCGTGCTAG: 1.4 z-score
TTAGATATCGGGACTGGATTGGTGCTA: -0.102 z-score
GACGATCTCAGTATCGTGACGTGCTAG: -0.113 z-score
GACGATATCGGGCTTCGAGACGTGCTA: -0.524 z-score

Series 5
Target: RNA binding protein fox-1 homolog 2, RRM domain, GST-SBP tag (RBFOX2, Homo sapiens, UniProt O43251-10, residues 100-194)
Technique: RNA Bind-n-Seq
Form: RNA
Matrix: in vitro
Concentration: 365 nM
Notes: natural RNA segment, single round, ends assumed
Baseline: no-protein control
Reading: higher = stronger binding
Endpoint: RBNS enrichment (R)
Constant ends, left off below: GGGAGUUCUACAGUCCGACGAUC … UGGAAUUCUCGGGUGCCAA
CUCAAAAGUUAAGAGCAAAUUAUGGAAGAAUAAUUUGAUGUCUUUGAGAAACCAUGAGGUUUCUUUGUAUUAAAAUUUGAAAUAAAUUUCUACUUAUCUUUUGGUAUUGG: 0.625
GUUGGUCAGAAUCUGUAAAGUACUAGCACCUAUCCCUUUGGAGCAGCAAUCAAAUGAUUUAGUCUUGUAAUAAAAUUGCAUUUUAAUUAUCUUAGGUGCUUUUUUUUUCU: 0.937
CUCUGCCUCCUUCUCUCUGCCUGGUUCUUCAGAAGGCAGUGAAUGGGUCAUAACUGGGACUCCAUCUUUGCUGGGGAAAGUCUCCCACCUAGGGAAUGGUUACCACUCCA: 1.07
GAUCGUGUUUCUGACGUUUCUCUUCCUUGCCUGGACUGCCUUUGACAAGGCAGAAAUGAACAUGAAAAGUCCCCAGGAGAGGGGAGCUGUGUAGUGAGGGAUACUGAGGG: 0.63
AUUGAGUUCCUUUUUUUAAGAUAGAAAUUCUUUUCAUGGUCCUCUGAAAGAAGCAAUAGUAACAAUCUUAUAUUGGAUCAUGGGGGAAGCAAAUGUGUGUAUUUUAAGUG: 0.524
CUGACCUUGGUAGGACUAAAGUAUUGGGCAGAGCAGCAGCAGUCCCAGGUUUUGUUUGACCUGUGUAGGCUGCAUUUAAAUCUUUAAAACUGCUUUGGUGUCGUUUUUUU: 0.376
GGAGUUGUAGUAGAAAAGGCAUCUGCUUUUCAGAAAGACUAUUAUUUCCUAACCAUGAGAAGCAGACUCUAAUAUUCAUAUUUAAACAAAGCAAUUUUUUUUAUUACUAA: 0.617
CUCCUCCAGUGUGGGCUUGACCAGGCUUGGCCUUGGGCUAUUUGGACUCAGGUGGGCCCUCUGAACUUGCCUUAAACACUCACCUUCUAGUCUUGGCCAGCCAACUCUGG: 0.629

Series 6
Organism: Vesicular stomatitis virus
Effect on: pseudovirus infection
Technique: FDA-approved drug library screen
Concentration: concentration not given
Notes: SARS-CoV-2 spike pseudotype
Baseline: vehicle
Endpoint: GFP-positive cells
C[S+](C)[O-]: 87.6%
NC(=O)N/N=C/c1ccc([N+](=O)[O-])o1: 89.7%
Cl.NC(N)=NCCC[C@H](N)C(=O)O: 81.7%
